Results from different studies.
A part holds a random share of what one study measured.

Series 1 — technique: RNA Bind-n-Seq; form: RNA; matrix: in vitro; concentration: 365 nM; reference: no-protein control; direction: higher = stronger binding
Target: RNA binding protein fox-1 homolog 2, RRM domain, GST-SBP tag (RBFOX2, Homo sapiens, UniProt O43251-10, residues 100-194)
Notes: natural RNA segment, single round, ends assumed
Residues (chain): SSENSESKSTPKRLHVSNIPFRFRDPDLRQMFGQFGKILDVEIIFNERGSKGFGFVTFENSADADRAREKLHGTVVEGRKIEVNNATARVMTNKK
Sequence | RBNS enrichment (R)
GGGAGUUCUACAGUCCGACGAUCGGAUAGGAGUGGCUCCAUCUAUCCUUGUGGUGAAAGAGUCCAGGAGCUCCUUUAGAGAUUGUCAAGUCCUGAGCGAUGAGCUGCCCUUAAUCCUCAGAAGCCUUACAAAAUGGAAUUCUCGGGUGCCAA | 0.314
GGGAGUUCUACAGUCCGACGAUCUGGGGUUAGAAACCUGCAAAGGCAGCCGGGCGUGGUGGCGCAUGCCUUUAAUCCCAGCACUCGGGAGGCAGAGGCAAGCGGAUUUCUGAGUUUGAGGCCAACCUGGUCUAUGGAAUUCUCGGGUGCCAA | 1.83
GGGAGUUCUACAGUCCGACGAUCACGAGCUCAAGCUGAAGUCAGAUGAGGACGAGGAGCGGGUCCACGAGGAGCUCUGAGGGGCAGGGAGCCUGGCCAGGCCUGAGACACAGAGGCCCACUGCGAGGGGGACAUGGAAUUCUCGGGUGCCAA | 0.685
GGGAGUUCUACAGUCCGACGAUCGCUUAUCUGGGUGGGUGGGGAUGCCUGUUUACACUAGCGCUGACUCCCAACGGUGACGGCUCCCUUCCCCACUCCAUGGCGCCAGCCUCCUCCCCCGCUCCCCAACUUCUUGGAAUUCUCGGGUGCCAA | 0.488
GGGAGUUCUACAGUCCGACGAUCAAGGUGGCUUCUGCUCCAGAACUCUAUCCACUGUAUUUCCACAUCGUGAGUCAUUUUACUUUAAAAGGGAAAAACAAAUUUGUAGCAACUCUGAAGUAUCAAGAGUUUUAUGGAAUUCUCGGGUGCCAA | 0.524
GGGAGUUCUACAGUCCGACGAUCGUAUAAAAAUGUGUAUACCAAUUUGGGAAUAGGGGAACCCAGUCAUGGAUGGAUAAUAAGCCAAGUCUUGAAUCAUUCCUAUCAAGAUUAGUAUACAUGAGGAAGAGGUGUGGAAUUCUCGGGUGCCAA | 0.517
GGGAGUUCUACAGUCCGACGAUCGUGUGGCAACCCUGCUCUGUGCUCUGAAACCAAAGUGUGUCCUGUCUUGUCUGUCUCUCACCCUGCCAAAAGCAAGUGUCUAAUCACUGAUGCUGACCAGCCUGUUACAGUGGAAUUCUCGGGUGCCAA | 0.349
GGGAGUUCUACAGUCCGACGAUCAUGCAUGUAUUAUGCAUUGGAAAGGUAUUUUUUUUAAGUUCUGUUGGCUAGCUAUGGUUUUCAGUACAUUUCCUACUUUAAGAGUAAUUACUGACAAAUAUGUAUUUCCUUGGAAUUCUCGGGUGCCAA | 0.925
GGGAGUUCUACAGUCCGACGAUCUUUUUUCCUCUCCUAUUCCAACACUUCCUGCUGGGAGAUCUCCACGCCUAUUUUCACCAUUCUCAGGCAAAUACUCCAUGGCUGUAGUUUGACGGACUGUUCCAAUCUGCUGGAAUUCUCGGGUGCCAA | 0.675

Series 2 — technique: universal PBM; form: double-stranded DNA, one strand shown; matrix: in vitro; concentration: 600 nM; direction: higher = stronger binding
Target: Sal-like protein 4, full length isoform A (SALL4, Homo sapiens, UniProt Q9UJQ4, residues 1-1053)
UniProt Q9UJQ4, sequence (whole entry, looked up): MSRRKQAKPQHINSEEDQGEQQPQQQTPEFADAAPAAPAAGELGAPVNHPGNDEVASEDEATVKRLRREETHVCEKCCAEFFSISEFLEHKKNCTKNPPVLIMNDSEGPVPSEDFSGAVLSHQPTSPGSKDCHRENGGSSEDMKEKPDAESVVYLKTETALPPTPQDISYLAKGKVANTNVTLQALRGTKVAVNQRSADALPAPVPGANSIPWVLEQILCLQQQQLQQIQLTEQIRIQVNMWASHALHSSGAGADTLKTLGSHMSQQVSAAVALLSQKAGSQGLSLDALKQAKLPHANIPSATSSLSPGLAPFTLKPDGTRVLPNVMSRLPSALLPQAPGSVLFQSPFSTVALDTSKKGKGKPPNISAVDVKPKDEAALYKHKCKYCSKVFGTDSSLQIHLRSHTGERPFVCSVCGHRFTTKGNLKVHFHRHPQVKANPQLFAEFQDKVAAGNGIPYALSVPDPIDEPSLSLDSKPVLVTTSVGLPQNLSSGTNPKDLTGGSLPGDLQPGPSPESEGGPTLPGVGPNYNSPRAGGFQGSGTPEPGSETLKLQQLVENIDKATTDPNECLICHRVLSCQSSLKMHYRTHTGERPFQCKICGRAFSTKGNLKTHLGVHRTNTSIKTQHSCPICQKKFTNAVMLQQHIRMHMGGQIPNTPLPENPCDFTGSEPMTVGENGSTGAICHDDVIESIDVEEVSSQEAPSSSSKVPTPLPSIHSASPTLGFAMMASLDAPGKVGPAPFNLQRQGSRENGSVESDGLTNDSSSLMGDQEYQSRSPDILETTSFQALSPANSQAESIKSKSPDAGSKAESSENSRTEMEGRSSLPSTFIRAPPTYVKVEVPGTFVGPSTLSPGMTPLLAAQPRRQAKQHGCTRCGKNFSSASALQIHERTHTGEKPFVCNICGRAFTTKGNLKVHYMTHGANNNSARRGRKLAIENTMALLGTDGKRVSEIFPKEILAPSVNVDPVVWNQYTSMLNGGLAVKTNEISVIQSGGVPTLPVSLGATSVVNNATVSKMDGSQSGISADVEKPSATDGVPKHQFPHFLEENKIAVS
Notes: 8-mer, flanks averaged, mean of replicates
Sequence | E-score
GTTTCATA | 0.313
CTACTGGA | -0.21
CTGTTGAA | 0.234
ACGTGGTC | -0.255
AGGTCCCG | -0.358
CGGCGTTC | -0.373
GTTGAACA | 0.115
GATAAGTA | 0.24
AGAGCTAT | -0.0813
ACGACGCA | -0.0364
GCGCTGAA | -0.309
ACAGTCAG | -0.0457
CTCACTCC | -0.139
AGGACCAT | -0.156
CATTCAAC | 0.134
GACTTGAA | 0.0153
ATAGCTTC | 0.0828
TAAGAAGA | 0.234
GTTCGTCA | -0.0753
AAAAATCG | 0.237
ACGGTCCA | -0.245
ACAACACT | 0.156
CGTAGCGC | -0.211
ACCCAACG | -0.0861
AATCATTG | 0.27

Series 3 — technique: aptamer microarray, sandwich; form: DNA with 2'F-ANA; matrix: in vitro; concentration: 200 nM; added: Cy3 exosite-II aptamer, 400 nM; direction: higher = stronger binding; sequence: GGTTGGTGTGGTTGG
Target: Prothrombin, mature alpha-thrombin (F2, Homo sapiens, UniProt P00734)
Notes: whole 15-mer aptamer, many near background
Modification | mean fluorescence intensity
2'F-ANA at 3 6 8 9 10 11 12 | 513 a.u.
2'F-ANA at 2 3 4 5 7 8 10 12 13 | 49.9 a.u.
2'F-ANA at 1 3 8 9 11 12 14 15 | 172 a.u.
2'F-ANA at 2 4 6 8 9 11 12 13 15 | 296 a.u.
2'F-ANA at 2 3 4 5 6 7 8 11 14 15 | 49.5 a.u.
2'F-ANA at 1 4 5 8 | 69 a.u.
2'F-ANA at 1 3 8 14 15 | 109 a.u.
2'F-ANA at 1 2 3 5 6 9 10 11 13 15 | 49 a.u.
2'F-ANA at 2 3 6 7 8 9 14 | 354 a.u.
2'F-ANA at 3 5 6 14 | 49.3 a.u.
2'F-ANA at 4 5 6 8 10 11 12 | 54.4 a.u.
2'F-ANA at 1 2 5 8 12 13 14 15 | 88.5 a.u.
2'F-ANA at 3 5 6 7 8 9 10 12 14 15 | 50.1 a.u.
2'F-ANA at 1 6 7 11 12 | 276 a.u.
2'F-ANA at 1 3 8 9 10 11 12 | 101 a.u.
2'F-ANA at 1 2 4 5 6 8 9 10 12 13 14 15 | 50.5 a.u.
2'F-ANA at 3 4 8 10 13 14 | 200 a.u.
2'F-ANA at 4 5 6 7 8 10 11 15 | 46.6 a.u.
2'F-ANA at 1 2 3 6 7 10 11 13 14 | 61.2 a.u.
2'F-ANA at 1 2 3 8 9 12 13 14 | 89.7 a.u.
2'F-ANA at 1 5 6 7 9 11 12 | 94.2 a.u.
2'F-ANA at 6 7 8 9 10 12 14 15 | 119 a.u.
2'F-ANA at 4 6 7 8 10 14 | 73.9 a.u.
2'F-ANA at 1 2 4 5 9 11 | 52.1 a.u.
2'F-ANA at 1 3 4 5 7 8 9 10 11 12 13 14 | 49.3 a.u.

Series 4 — technique: RNA Bind-n-Seq; form: RNA; matrix: in vitro; concentration: 100 nM; reference: input RNA pool; direction: higher = stronger binding
Target: RING finger protein unkempt homolog, zinc fingers 1-6, SBP tag (UNK, Homo sapiens, UniProt Q9C0B0, residues 30-357)
UniProt Q9C0B0, sequence (30-357, looked up): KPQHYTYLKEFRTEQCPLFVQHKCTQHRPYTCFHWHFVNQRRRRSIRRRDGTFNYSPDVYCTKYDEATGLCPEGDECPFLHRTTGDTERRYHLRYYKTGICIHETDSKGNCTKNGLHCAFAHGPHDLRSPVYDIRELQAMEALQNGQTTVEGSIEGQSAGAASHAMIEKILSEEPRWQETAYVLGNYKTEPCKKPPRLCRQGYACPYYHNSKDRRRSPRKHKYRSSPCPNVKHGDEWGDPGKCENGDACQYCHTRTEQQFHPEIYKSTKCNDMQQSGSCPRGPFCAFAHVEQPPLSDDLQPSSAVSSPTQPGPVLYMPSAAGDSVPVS
Notes: RNA with constant flanks, vertebrate orthologous sites, ends assumed
Sequence | bound/input enrichment [ratio]
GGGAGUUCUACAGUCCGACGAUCCCCGCUAAACCCCAUUUCUUCUGUUUCAUAGUGCAGAAGUAUUCUUUCUCAGUUAUAUUUUAGUGGACUUGUUUUAAUUUUAGGGAAACUUCCAGUACAGAUACUGUGAGCUUACAUGGACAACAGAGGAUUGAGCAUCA | 2.12
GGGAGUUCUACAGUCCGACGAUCCCGAAAGGCCAAAUUCCCUCCUCCCUUCUACUGCUUCUACCAACUGGAAGCACAGAAAACUAGAACUUCAUUUAUUUUGUUUUUUAAAGAGAUACACUGAUUUAACAUCCAAUAGGAACUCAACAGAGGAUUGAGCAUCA | 1.78
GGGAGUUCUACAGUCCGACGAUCCUCCCCGUUAUUCAUGAAAUACAACUUUUUAAAAUUGUGUUGCCACCACUUGUAAAAAAUAACAAAAACAAAACAAAAAAAAAAAACCCAGCAAUAUUAGAAUAAGAUGCUAAUGAAGUCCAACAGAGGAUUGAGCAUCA | 0.741
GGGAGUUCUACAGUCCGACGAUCUCUGUAAGGGAAAAAAAAAAGAGAGUGAGAGAGAGAGGAUAAGAAAAGAACCCGAAUACAUAGAGCUUUUUAAUAGCACUAACCAAUGCCUUUUUUAGAUGUAUUUUUGAUGUAUAUAUCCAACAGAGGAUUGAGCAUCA | 0.821
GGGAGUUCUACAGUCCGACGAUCAAAUCAUGGCUGCUUAUUAGUGCCUCGGUGAGGUAAAGGCUCCCUGGCGUUCCCUGGUACCAGAGCCAGUCUCCCAAGAAGUCCUUGCGCAUUUCACUUCCUUUCCUUUCACAUGCAAGUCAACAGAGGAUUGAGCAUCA | 0.374
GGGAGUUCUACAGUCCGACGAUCAGAAAAUUUUAACCAAGAUUCUGAAGGUAGAAAUACAGGACCGUGGUUAUCUUCAUCACUUAGGAAUAGAUGCACACCUUUGUUUUCUAGAAGACGGCGAGAAGGAAGAGAUGAAUCUUCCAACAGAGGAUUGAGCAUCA | 1.18
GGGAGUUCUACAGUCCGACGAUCGCACAUGCCACUAUCACCAAAAGCAAACUGCCACUUUUCAAAUUUCAUUCAGAGCUGUUUUAGUGUUUCCCAUUCCCUGCCUUUCCCACUACUUUCAAUGAUGAAAUAGCCUCAGUUGUCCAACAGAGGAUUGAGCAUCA | 1.9
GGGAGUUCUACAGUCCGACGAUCGCCAUCUGACUGGAUGAAGACGAUCCCAAGUUACAACCAAACCAGCAGCUCCAUGGACUUUAGAAAUUAUAUGAUGAGAGAUGAGAAUCUGGAACCACUGCCCCCAAAUUGGGAAAUGGCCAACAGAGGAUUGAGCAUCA | 0.736
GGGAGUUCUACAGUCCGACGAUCAUUGUAUGUAGAGAAAAAAAUUUUCAUUGACCCCAUUGUGAAAUUCUCUAGCAAUUUAUUUAGAAUCUUCAUUUUUCUCAUUCAAGCUCACUGUAUUAGUUAUUUUUAGCCCAUAAUUAACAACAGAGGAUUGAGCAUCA | 2.51
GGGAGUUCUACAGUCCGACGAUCAAUUACACUAAUACUGAAGUUAAGAUUAAAAGGAUAUCCAAGGUGAUGAUAAAGUGUGUGUUGGUAGUUACUAAAAGAACCUUAGCUGUUAUUGCCUUGUAUUUCUAUCCCUUGUUUCAACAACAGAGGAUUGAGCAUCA | 0.375
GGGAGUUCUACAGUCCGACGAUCGGUUAAUGUGUUAUUUAUUGAGUAUUGUUUAUGCUAAGCAUUGUGUUAGAUUUAAAAAAUUAGUGGAUUGACUCCACUUUGUUGUGUUGUUUUCAUUGUUGAAAAUAAAUAUAACUUUGUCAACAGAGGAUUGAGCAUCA | 0.735

Repeated from above (series 3):
Modification | mean fluorescence intensity
2'F-ANA at 3 6 8 9 10 11 12 | 513 a.u.
2'F-ANA at 1 2 3 8 9 12 13 14 | 89.7 a.u.
2'F-ANA at 1 2 4 5 6 8 9 10 12 13 14 15 | 50.5 a.u.
2'F-ANA at 3 5 6 14 | 49.3 a.u.
2'F-ANA at 2 3 6 7 8 9 14 | 354 a.u.
2'F-ANA at 4 5 6 7 8 10 11 15 | 46.6 a.u.
2'F-ANA at 1 2 4 5 9 11 | 52.1 a.u.
2'F-ANA at 6 7 8 9 10 12 14 15 | 119 a.u.
